Results of several laboratories.
A part holds a random share of what one study measured. Values joined by “and” are separate records of one study, mostly repeats; a detail may differ.
UniProt P09619, sequence (whole entry, looked up): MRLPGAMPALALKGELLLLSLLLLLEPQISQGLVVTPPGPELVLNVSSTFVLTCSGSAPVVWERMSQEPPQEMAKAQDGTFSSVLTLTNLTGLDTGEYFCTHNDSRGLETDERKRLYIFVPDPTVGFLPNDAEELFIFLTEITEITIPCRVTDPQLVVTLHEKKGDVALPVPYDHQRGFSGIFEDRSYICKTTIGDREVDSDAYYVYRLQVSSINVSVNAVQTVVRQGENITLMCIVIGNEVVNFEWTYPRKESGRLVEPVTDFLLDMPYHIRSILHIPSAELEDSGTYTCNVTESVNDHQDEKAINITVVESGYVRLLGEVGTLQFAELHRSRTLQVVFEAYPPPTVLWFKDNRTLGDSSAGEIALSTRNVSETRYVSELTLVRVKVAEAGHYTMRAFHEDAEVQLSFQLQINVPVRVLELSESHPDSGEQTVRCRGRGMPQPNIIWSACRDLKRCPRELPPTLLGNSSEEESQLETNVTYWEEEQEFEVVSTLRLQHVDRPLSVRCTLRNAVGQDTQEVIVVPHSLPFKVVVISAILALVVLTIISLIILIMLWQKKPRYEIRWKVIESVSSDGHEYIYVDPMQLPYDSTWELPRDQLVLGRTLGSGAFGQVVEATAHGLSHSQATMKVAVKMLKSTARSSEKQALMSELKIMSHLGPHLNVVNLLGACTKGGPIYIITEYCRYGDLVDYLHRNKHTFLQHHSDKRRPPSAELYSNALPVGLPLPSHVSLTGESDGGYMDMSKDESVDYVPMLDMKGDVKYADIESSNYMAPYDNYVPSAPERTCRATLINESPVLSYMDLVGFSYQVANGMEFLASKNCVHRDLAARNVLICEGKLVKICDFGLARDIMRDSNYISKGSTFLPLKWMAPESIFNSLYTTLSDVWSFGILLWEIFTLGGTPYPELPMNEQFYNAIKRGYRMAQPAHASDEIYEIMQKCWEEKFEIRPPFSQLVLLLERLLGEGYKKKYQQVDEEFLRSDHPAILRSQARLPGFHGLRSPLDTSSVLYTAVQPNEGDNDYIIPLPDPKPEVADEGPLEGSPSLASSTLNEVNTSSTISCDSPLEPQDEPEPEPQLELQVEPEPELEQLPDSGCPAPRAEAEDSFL
UniProt Q9HC98, sequence (whole entry, looked up): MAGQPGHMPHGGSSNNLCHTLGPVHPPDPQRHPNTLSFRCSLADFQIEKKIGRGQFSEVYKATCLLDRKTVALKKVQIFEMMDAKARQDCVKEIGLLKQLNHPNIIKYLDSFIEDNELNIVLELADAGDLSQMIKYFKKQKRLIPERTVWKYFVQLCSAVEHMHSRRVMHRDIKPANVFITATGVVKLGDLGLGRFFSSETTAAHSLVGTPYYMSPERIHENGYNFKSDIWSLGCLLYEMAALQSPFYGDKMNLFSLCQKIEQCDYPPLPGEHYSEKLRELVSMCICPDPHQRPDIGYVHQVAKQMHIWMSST
UniProt Q8NI60, sequence (whole entry, looked up): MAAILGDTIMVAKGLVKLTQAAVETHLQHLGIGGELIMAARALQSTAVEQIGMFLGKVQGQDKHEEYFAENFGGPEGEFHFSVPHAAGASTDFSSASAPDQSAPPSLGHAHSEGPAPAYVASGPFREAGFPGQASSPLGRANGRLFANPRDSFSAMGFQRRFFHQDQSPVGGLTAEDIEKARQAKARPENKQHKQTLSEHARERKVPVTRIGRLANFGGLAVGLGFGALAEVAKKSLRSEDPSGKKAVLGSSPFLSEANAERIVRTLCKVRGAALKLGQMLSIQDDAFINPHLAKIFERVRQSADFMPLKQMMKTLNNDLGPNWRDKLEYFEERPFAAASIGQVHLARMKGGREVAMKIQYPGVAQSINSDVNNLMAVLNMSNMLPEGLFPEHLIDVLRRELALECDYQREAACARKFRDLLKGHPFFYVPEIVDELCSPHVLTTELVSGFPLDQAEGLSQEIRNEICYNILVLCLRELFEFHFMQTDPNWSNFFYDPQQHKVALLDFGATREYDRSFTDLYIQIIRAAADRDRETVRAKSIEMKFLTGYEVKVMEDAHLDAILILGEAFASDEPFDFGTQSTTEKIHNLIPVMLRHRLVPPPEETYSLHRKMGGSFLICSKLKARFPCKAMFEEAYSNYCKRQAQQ
UniProt O94768, sequence (whole entry, looked up): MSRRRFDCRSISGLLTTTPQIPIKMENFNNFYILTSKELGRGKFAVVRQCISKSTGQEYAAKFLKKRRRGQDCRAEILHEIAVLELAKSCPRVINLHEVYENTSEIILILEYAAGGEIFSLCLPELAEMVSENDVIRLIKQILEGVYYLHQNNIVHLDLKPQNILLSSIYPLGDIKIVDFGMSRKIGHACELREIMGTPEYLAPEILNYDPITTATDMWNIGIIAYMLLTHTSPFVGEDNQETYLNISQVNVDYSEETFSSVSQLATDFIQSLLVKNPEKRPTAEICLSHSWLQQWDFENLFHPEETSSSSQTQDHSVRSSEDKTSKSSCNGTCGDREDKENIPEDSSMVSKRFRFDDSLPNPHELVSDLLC
UniProt P28482, sequence (whole entry, looked up): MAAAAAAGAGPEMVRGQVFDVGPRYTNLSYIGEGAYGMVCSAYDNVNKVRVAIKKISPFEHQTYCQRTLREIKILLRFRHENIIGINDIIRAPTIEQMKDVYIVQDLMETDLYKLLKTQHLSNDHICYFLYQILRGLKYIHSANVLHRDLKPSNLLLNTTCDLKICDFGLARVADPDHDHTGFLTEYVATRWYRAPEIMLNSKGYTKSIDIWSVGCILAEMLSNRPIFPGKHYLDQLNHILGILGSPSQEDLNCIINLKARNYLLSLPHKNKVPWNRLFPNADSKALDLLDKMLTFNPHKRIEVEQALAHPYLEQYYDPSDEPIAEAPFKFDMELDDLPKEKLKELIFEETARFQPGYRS
UniProt O00238, sequence (whole entry, looked up): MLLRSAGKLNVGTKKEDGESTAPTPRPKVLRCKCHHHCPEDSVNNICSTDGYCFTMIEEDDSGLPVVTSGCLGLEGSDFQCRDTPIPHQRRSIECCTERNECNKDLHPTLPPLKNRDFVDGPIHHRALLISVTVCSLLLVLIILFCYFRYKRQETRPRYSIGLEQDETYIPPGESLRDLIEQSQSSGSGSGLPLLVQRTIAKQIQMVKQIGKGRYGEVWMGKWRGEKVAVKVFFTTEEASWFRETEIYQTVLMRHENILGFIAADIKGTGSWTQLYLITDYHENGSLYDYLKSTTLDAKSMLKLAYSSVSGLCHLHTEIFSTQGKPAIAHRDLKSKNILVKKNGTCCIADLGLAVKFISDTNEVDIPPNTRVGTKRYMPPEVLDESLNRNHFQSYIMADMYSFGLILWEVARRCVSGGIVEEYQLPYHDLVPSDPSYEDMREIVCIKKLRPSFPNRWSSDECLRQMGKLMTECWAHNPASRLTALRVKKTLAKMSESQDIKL
UniProt Q8TDR2, sequence (whole entry, looked up): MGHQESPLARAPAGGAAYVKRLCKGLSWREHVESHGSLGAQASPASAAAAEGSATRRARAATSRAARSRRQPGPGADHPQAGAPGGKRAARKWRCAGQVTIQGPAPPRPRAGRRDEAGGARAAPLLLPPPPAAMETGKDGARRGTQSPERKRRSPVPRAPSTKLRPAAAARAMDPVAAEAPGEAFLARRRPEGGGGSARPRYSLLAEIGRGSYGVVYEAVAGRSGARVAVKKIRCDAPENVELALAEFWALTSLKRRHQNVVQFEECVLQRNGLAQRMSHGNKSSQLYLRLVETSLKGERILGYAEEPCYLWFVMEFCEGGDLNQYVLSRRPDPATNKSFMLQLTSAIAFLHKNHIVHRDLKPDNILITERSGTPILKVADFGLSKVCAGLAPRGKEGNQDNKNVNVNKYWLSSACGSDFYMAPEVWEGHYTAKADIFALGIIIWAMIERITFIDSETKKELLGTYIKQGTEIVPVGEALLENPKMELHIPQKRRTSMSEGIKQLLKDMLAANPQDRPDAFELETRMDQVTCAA
UniProt O14965, sequence (whole entry, looked up): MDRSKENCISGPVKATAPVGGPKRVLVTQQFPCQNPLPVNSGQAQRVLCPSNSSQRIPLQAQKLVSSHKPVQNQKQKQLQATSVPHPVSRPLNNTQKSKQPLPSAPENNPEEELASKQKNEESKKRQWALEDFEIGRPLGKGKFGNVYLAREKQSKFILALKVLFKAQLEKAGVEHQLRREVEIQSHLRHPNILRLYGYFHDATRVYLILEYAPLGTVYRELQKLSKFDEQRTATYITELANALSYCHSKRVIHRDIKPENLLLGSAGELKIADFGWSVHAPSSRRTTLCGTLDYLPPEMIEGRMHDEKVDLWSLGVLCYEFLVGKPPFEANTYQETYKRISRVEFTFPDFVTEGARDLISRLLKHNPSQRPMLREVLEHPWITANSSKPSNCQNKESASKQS

Block 1 — tested at: 1 µM
Compound: O=C(O)[C@@H]1[C@@H](Cn2nnc3ccccc3c2=O)CC[C@H]1C(=O)c1ccc(OCCC2CCOCC2)cc1
target	test	remaining binding
COQ8A (Homo sapiens, UniProt Q8NI60)	cell-free assay, competition with immobilised ligand	88%
MAPK8 (Homo sapiens, UniProt P45983)	cell-free assay, competition with immobilised ligand	100%
ALK (Homo sapiens, UniProt Q9UM73)	cell-free assay, competition with immobilised ligand	100%
EPHA5 (Homo sapiens, UniProt P54756)	cell-free assay, competition with immobilised ligand	94%
BMPR1B (Homo sapiens, UniProt O00238)	cell-free assay, competition with immobilised ligand	78%
SIK1 (Homo sapiens, UniProt P57059)	competition binding	91%
CDK2 (Homo sapiens, UniProt P24941)	cell-free assay, competition with immobilised ligand	100%
PDGFRB (Homo sapiens, UniProt P09619)	cell-free assay, competition with immobilised ligand	100%
MAPK1 (Homo sapiens, UniProt P28482)	cell-free assay, competition with immobilised ligand	93%
KIT (Homo sapiens, UniProt P10721, A829P)	cell-free assay, competition with immobilised ligand	90%
Aurora kinase A (AURKA, Homo sapiens, UniProt O14965)	cell-free assay, competition with immobilised ligand	100%
NEK6 (Homo sapiens, UniProt Q9HC98)	cell-free assay, competition with immobilised ligand	100%
EIF2AK2 (Homo sapiens, UniProt P19525)	cell-free assay, competition with immobilised ligand	100%
PAK2 (Homo sapiens, UniProt Q13177)	cell-free assay, competition with immobilised ligand	82%
STK17B (Homo sapiens, UniProt O94768)	cell-free assay, competition with immobilised ligand	99%
LCK (Homo sapiens, UniProt P06239)	cell-free assay, competition with immobilised ligand	93%
STK35 (Homo sapiens, UniProt Q8TDR2)	cell-free assay, competition with immobilised ligand	100%

Block 2 — cell line: mouse MPNST tumor cells; method: high-content nuclear imaging; measured: cell number; tested at: 10 µM; time: 12 h; notes: mean of 2 replicates; reference: plate mean; direction: higher = more cells
Compound	nuclei count
COc1cccc(OC)c1-c1ccc(C[C@H](NC(=O)c2c(Cl)cccc2Cl)C(=O)O)cc1	-0.578 z-score
N=C(N)NC(=O)c1nc(Cl)c(N)nc1N	1.79 z-score and 2.56 z-score
O=C(c1ccc(F)cc1)N1CCc2nc(COc3ccccc3)oc2C1	1.08 z-score
CN(C)CCc1c[nH]c2ccc(C[C@H]3COC(=O)N3)cc12	1.41 z-score and -0.2 z-score
Cc1ccc(S(=O)(=O)n2c(N)nc3ccccc32)cc1	0.336 z-score
CC(C)(NS(=O)(=O)c1ccc(Oc2ccc(F)cc2)cc1)C(=O)NO	1.33 z-score
CC(=O)O[C@]1(C(C)=O)CC[C@H]2[C@@H]3C=C(C)C4=CC(=O)CC[C@@H]4[C@H]3CC[C@@]21C	0.505 z-score
CC(C)(C)C(=O)OCOC(=O)[C@@H]1N2C(=O)[C@@H](/N=C/N3CCCCCC3)[C@H]2SC1(C)C	0.233 z-score
Cc1nc(N)c2nnn(C[C@H]3CN(Cc4nccs4)CCO3)c2n1	0.523 z-score

Block 3 — SMILES: CCOc1ccc(Nc2c3c(nc4ccccc24)CCC3)cc1
cell line	test	setting	cytotoxicity
PMA-differentiated THP-1 macrophages	–	2 µM, 64 h	9% and 3%
J774.1	resazurin	0.66 µM	-3% and -5%
PMA-differentiated THP-1 macrophages	–	0.4 µM, 64 h	-1% and 1%
HepG2	resazurin	6.66 µM, 48 h	56% and 51%
RAW264.7	resazurin	16.66 µM, 64 h	53% and 25%
J774.1	resazurin	0.066 µM	-4% and -5%
HepG2	resazurin	0.32 µM, 48 h	4% and 3%
RAW264.7	resazurin	0.0066 µM, 64 h	-3% and -2%
HEK293	resazurin	0.66 µM, 10% serum	11% and 12%

Block 4 — read-out: enzyme activity; mode: inhibitor; tested at: 0.5 µM; reference: control
Target: Serine/threonine-protein kinase BRSK1 (BRSK1, Homo sapiens, UniProt Q8TDC3)
UniProt Q8TDC3, sequence (whole entry, looked up): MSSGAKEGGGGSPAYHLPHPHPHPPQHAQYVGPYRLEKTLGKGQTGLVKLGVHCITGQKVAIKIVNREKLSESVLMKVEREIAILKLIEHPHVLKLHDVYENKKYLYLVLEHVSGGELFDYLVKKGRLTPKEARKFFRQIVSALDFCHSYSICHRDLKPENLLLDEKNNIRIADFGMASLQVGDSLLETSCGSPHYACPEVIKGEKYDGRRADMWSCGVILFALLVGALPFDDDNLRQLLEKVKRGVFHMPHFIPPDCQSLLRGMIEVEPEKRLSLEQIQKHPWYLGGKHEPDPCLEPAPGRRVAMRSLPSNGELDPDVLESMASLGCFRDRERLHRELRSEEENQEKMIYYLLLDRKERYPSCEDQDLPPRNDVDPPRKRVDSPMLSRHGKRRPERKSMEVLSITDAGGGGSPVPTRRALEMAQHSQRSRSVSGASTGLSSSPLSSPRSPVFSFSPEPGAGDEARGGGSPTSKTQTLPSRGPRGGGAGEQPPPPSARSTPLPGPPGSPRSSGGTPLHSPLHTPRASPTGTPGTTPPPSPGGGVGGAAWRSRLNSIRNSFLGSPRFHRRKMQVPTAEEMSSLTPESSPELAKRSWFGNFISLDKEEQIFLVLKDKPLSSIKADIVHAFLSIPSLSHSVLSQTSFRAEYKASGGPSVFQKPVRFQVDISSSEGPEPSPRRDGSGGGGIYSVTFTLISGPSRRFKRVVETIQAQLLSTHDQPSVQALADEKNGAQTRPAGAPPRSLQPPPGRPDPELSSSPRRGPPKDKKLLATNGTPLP
Compound	remaining activity
N#Cc1c(NC(=O)c2cccc3ccccc23)sc2c1CCCC2	97%
CN([C@@H](Cc1ccc(OS(=O)(=O)c2cccc3cnccc23)cc1)C(=O)N1CCN(c2ccccc2)CC1)S(=O)(=O)c1cccc2cnccc12	96.4%
CN(C)C[C@H]1CCn2c(c(C3=C(c4cn(C)c5ccccc45)C(=O)NC3=O)c3ccccc32)C1	101%
O=C1C(Cl)=C(N2C(=O)CCC2=O)C(=O)c2ccccc21	96.9%
COc1cc2ncnc(Nc3cccc(Cl)c3)c2cc1OC	93.1%
Cn1nc2c3c(cccc31)C(=O)c1ccccc1-2	92.5%
Nc1cccc(-c2cc3c(Oc4cccc(O)c4)ncnc3[nH]2)c1	83.1%
N#C/C(=C\c1ccc(O)c(O)c1)C(=O)NCc1ccccc1	104%
c1ccc(-c2[nH]ncc2-c2ccnc3ccccc23)nc1	99%
C[C@@H]1CCN(C(=O)CC#N)C[C@@H]1N(C)c1ncnc2[nH]ccc12	102%
COc1cc2ncnc(Nc3ccc(O)c(Br)c3)c2cc1OC	81.6%
c1ccc(-c2cnc(Nc3ccc(OCCN4CCCC4)cc3)s2)cc1	97.6%
COc1cc2c(cc1OC)-c1[nH]nc(Nc3cccc(F)c3)c1C2	89.3%
O=c1cc(-c2cccc3c2Sc2ccccc2S3)oc(N2CCOCC2)c1	98.2%
Cc1cc2ncc(-c3ccccc3)nc2cc1C	95.1%
O=C1c2ccccc2-c2n[nH]c3cccc1c23	56.9%
Ic1cccc(CSc2nnc(-c3ccncc3)o2)c1	101%
CCN(CC)C(=O)c1ccc(Nc2nc(OCC3CCCCC3)c3[nH]cnc3n2)cc1	84%
O=C(Nc1cccc(Nc2nccc(Nc3cccc(C(F)(F)F)c3)n2)c1)C1CC1	97.1%
CCN(CC)CCNC(=O)c1c(C)[nH]c(/C=C2\C(=O)Nc3ccc(Cl)cc32)c1C	36.5%
Cc1cn(-c2cc(NC(=O)c3ccc(C)c(Nc4nccc(-c5cccnc5)n4)c3)cc(C(F)(F)F)c2)cn1	98%
Cc1nc2cc3nc(-c4cccs4)cnc3cc2n1C	98.7%
CCN(CC)CCNC(=O)c1c(C)[nH]c(/C=C2\C(=O)Nc3ccc(F)cc32)c1C	45.1%
CCOc1nc(NC(=O)Cc2cc(OC)ccc2OC)cc(N)c1C#N	95.7%
